Experimental data of several laboratories.
Numbered parts are unrelated; each lists some results of a single study.
Chain of UniProt P04629 (whole entry, looked up): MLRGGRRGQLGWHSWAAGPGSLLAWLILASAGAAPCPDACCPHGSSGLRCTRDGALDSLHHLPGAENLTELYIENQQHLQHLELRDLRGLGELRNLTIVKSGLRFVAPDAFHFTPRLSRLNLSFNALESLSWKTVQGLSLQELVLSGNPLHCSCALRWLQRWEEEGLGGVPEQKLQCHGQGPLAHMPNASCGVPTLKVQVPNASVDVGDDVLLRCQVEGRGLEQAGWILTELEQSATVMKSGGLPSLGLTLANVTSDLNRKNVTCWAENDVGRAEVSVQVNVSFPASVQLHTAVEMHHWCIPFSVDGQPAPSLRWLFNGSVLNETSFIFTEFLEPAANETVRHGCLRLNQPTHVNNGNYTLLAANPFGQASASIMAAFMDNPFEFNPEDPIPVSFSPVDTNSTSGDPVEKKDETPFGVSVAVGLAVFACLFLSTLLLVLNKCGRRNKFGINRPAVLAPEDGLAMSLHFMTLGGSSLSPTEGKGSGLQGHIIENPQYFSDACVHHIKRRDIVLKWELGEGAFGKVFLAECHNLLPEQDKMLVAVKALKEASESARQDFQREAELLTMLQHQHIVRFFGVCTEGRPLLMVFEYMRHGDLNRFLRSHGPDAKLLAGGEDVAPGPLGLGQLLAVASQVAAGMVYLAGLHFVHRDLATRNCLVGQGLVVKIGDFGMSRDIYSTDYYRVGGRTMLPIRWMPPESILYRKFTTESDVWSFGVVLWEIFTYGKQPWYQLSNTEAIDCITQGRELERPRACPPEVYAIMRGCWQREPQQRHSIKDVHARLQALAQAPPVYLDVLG
Chain of UniProt P30530 (whole entry, looked up): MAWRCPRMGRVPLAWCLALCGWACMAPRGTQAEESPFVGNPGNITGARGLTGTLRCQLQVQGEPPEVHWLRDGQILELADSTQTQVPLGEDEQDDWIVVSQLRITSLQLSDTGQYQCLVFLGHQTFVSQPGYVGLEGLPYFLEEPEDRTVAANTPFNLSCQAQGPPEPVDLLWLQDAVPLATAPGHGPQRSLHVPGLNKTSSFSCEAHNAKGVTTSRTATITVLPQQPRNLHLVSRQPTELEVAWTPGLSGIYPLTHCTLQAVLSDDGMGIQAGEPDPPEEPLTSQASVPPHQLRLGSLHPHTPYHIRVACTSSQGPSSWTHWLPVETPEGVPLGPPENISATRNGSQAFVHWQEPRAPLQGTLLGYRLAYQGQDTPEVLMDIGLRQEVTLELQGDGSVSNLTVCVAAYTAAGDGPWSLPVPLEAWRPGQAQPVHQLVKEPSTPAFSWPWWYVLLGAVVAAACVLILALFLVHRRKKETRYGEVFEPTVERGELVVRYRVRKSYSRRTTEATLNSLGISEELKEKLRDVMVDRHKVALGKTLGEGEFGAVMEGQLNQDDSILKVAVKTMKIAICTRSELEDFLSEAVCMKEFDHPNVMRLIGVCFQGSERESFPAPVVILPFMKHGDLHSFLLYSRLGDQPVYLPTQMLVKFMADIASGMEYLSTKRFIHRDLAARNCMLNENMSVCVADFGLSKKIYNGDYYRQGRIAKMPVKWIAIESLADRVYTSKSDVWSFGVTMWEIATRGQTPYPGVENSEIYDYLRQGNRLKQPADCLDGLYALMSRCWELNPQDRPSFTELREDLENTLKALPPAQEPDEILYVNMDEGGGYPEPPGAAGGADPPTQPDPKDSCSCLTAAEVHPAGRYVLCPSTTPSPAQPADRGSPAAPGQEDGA
Chain of UniProt O00506 (whole entry, looked up): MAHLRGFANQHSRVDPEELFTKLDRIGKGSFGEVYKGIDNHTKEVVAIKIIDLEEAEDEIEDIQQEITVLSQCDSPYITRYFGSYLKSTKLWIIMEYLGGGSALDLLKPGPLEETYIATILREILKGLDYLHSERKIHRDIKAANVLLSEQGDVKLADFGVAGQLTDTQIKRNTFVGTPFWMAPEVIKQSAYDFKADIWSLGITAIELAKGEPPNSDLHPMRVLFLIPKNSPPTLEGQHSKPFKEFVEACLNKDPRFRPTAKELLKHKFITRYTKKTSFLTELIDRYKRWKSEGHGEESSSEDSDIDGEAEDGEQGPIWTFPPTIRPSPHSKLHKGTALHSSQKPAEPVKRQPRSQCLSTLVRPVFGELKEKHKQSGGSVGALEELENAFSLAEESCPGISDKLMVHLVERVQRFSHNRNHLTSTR
Chain of UniProt P00519 (whole entry, unmodified, looked up): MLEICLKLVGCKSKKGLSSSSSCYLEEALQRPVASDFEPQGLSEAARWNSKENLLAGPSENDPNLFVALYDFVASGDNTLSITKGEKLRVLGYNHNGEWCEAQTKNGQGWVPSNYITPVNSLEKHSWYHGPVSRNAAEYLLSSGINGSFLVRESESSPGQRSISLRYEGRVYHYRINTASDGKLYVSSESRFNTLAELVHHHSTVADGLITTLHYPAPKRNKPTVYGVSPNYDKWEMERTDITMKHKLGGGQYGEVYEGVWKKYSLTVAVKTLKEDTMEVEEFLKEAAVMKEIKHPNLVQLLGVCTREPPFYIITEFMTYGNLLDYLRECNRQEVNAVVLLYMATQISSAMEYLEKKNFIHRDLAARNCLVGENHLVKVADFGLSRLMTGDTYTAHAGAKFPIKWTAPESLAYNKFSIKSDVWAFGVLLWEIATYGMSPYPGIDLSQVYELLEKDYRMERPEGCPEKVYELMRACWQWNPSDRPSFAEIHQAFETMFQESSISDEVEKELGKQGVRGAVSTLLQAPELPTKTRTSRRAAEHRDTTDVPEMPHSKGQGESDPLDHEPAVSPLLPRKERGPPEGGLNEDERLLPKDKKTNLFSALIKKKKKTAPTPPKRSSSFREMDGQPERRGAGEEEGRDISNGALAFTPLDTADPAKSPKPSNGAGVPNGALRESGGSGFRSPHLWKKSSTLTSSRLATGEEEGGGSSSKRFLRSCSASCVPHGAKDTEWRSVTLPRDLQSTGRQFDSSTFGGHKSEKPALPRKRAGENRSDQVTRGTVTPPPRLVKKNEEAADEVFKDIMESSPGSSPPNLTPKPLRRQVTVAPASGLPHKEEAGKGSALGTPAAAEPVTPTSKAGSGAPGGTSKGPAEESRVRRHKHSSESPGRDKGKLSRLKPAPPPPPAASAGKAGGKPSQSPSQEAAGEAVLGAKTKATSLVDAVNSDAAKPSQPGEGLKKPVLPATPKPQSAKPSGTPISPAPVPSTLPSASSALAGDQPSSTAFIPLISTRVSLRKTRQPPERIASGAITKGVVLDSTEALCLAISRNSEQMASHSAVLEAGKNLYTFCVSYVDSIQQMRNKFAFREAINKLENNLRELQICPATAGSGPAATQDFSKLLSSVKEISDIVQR
Chain of UniProt Q96PN8 (whole entry, looked up): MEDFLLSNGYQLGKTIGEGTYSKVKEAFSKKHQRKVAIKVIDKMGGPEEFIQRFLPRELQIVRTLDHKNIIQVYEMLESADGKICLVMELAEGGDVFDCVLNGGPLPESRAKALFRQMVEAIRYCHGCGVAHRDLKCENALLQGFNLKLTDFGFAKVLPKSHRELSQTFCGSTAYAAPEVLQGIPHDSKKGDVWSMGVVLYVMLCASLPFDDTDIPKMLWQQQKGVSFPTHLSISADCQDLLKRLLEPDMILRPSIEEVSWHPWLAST

Study 1 — effect on: RNA clamping; method: fluorescence polarization; tested at: concentration not given; together with: FAM-labelled poly r(AG)8 RNA; direction: higher = more clamping
Target: Eukaryotic initiation factor 4A-I (EIF4A1, Homo sapiens, UniProt P60842)
Chain of UniProt P60842 (whole entry, looked up): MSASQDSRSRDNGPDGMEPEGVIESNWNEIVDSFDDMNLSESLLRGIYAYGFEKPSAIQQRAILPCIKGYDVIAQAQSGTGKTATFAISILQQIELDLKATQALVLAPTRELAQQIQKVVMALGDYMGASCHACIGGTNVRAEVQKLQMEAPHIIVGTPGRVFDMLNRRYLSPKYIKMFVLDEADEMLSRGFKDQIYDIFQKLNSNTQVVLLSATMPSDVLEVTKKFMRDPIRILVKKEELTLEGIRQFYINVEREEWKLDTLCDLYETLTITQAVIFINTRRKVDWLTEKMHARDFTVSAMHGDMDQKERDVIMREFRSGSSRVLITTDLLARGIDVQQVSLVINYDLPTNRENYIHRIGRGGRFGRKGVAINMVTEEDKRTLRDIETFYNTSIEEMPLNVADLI
SMILES	fluorescence polarization change [mP]
COc1ccc([C@@]23Oc4cc(OC)cc(OC)c4[C@]2(O)c2[nH]nc(O)c2[C@H]3c2ccccc2)cc1	33.4
C#CCNC(=O)/C=C/Cn1c(-c2ccccc2)nc2c(c1=O)[C@@H](c1ccccc1)[C@]1(c3ccc(OC)cc3)Oc3cc(OC)cc(OC)c3[C@]21O	23.7
COc1ccc([C@@]23Oc4cc(OC)cc(OC)c4[C@]2(O)[C@H](O)[C@H](C(=O)c2ccccc2)[C@H]3c2ccccc2)cc1	-0.2
COc1ccc([C@@]23Oc4cc(OC)cc(OC)c4[C@]2(O)[C@H](O)[C@H](C(=O)c2ccco2)[C@H]3c2ccc(Br)cc2)cc1	11.7
COCCN[C@@]12/C(=N/O)C[C@@H](c3ccccc3)[C@]1(c1ccc(OC)cc1)Oc1cc(OC)cc(OC)c12	-4.6

Study 2 — method: KINOMEscan; tested at: 10 µM; relative to: DMSO control; direction: lower = stronger binding
SMILES: COc1cc(C(=O)N2CCC(N3CCN(C)CC3)CC2)ccc1Nc1ncc2c(n1)N(C)c1ccccc1C(=O)N2C
target	binding [%]
CAMKK1	73
LIMK2	100
PHKG2	33
PAK4	94
STK39	39
FES	84
AXL	100
EPHA7	97

Study 3 — effect on: enzyme activity; mode: inhibitor; tested at: 0.5 µM; relative to: control
Target: Mitogen-activated protein kinase kinase kinase 9 (MAP3K9, Homo sapiens, UniProt P80192)
Chain of UniProt P80192 (whole entry, looked up): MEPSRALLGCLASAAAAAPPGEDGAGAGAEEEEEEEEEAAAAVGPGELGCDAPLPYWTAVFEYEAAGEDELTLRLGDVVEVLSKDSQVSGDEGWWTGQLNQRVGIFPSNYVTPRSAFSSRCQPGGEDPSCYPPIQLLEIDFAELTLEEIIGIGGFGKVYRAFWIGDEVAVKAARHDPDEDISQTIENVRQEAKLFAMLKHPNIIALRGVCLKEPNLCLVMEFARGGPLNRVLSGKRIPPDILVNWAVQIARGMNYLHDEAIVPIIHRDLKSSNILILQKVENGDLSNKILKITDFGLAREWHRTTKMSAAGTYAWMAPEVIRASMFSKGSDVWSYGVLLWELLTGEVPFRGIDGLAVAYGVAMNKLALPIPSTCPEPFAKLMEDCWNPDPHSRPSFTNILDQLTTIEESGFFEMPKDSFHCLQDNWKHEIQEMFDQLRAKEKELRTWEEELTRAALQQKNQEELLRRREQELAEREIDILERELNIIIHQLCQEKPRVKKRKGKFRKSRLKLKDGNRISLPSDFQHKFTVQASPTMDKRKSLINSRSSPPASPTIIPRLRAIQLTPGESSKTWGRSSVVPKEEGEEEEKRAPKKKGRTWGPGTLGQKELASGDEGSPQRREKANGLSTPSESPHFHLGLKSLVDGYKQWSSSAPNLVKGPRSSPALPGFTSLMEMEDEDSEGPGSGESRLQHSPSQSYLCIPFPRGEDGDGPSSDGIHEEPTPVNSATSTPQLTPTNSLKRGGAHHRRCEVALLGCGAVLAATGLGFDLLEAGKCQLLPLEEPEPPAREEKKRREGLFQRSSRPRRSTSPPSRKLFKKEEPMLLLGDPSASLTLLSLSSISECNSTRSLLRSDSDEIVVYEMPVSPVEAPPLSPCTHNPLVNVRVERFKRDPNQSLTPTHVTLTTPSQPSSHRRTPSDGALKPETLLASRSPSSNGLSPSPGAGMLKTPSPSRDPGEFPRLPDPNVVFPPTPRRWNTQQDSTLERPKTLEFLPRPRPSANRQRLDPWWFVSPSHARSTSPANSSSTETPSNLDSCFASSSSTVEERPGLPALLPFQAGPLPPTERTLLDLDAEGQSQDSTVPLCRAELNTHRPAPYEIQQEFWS
SMILES	remaining activity [%]
c1cc(-c2cnn3cc(-c4ccc(OCCN5CCCCC5)cc4)cnc23)ccn1	70.5
O=C1NC(=O)/C(=C/c2ccc3c(c2)OC(F)(F)O3)S1	101
FC(F)(F)c1ccc(/C=C/c2nc(COc3ccc(CCCCn4ccnn4)cc3)co2)cc1	105
N#C/C(=C(/N)SC1C=CC=CC1)c1cccc(C(O)c2ccncc2)c1 (stereo not shown)	109
O=C1c2ccccc2-c2nc3nnnn3nc21	63.3
O=c1c(-c2ccc(F)cc2)c(-c2ccncc2)[nH]n1-c1ccc(Cl)cc1	103
CC(C)n1cnc2c(Nc3cccc(Cl)c3)nc(NCCO)nc21	27.2

Study 4 — effect on: cell-free assay; method: competition with immobilised ligand; tested at: 1 µM
Structure (SMILES): O=C(NC[C@@H]1[C@H]2CN(C(=O)OCc3cc(C(F)(F)F)cc(C(F)(F)F)c3)C[C@@H]12)c1ccc2[nH]nnc2c1
target	remaining binding [%]
Tyrosine-protein kinase ABL1, phosphorylated (ABL1, Homo sapiens, UniProt P00519, F317L)	88
AXL (Homo sapiens, UniProt P30530)	87
NTRK1 (Homo sapiens, UniProt P04629)	85
TAOK2 (Homo sapiens, UniProt Q9UL54)	86
MAPK9 (Homo sapiens, UniProt P45984)	100
TSSK3 (Homo sapiens, UniProt Q96PN8)	100
STK25 (Homo sapiens, UniProt O00506)	95
MAST1 (Homo sapiens, UniProt Q9Y2H9)	100
PIM3 (Homo sapiens, UniProt Q86V86)	100
AKT3 (Homo sapiens, UniProt Q9Y243)	87
PRKCH (Homo sapiens, UniProt P24723)	100
CASK (Homo sapiens, UniProt O14936)	70
MTOR (Homo sapiens, UniProt P42345)	100
ULK3 (Homo sapiens, UniProt Q6PHR2)	99
